Experimental data of several laboratories.
Each line is one published result; not all experiments were run side by side. Values joined by “and” are separate records of one study, mostly repeats; a detail may differ.
CA9: Carbonic anhydrase 9 (CA9, Homo sapiens, UniProt Q16790)
FLT3: Receptor-type tyrosine-protein kinase FLT3 (FLT3, Homo sapiens, UniProt P36888)
UniProt Q96GD4, sequence (whole entry, looked up): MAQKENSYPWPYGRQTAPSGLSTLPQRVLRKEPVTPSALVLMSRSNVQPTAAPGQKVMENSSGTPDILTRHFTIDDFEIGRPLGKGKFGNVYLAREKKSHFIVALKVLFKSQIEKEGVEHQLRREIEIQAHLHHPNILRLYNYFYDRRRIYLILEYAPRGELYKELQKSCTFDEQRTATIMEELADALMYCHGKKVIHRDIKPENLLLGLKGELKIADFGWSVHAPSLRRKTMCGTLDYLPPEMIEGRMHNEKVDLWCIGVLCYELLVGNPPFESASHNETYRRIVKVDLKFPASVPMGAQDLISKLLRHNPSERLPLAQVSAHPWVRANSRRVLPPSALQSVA
UniProt O00329, sequence (whole entry, looked up): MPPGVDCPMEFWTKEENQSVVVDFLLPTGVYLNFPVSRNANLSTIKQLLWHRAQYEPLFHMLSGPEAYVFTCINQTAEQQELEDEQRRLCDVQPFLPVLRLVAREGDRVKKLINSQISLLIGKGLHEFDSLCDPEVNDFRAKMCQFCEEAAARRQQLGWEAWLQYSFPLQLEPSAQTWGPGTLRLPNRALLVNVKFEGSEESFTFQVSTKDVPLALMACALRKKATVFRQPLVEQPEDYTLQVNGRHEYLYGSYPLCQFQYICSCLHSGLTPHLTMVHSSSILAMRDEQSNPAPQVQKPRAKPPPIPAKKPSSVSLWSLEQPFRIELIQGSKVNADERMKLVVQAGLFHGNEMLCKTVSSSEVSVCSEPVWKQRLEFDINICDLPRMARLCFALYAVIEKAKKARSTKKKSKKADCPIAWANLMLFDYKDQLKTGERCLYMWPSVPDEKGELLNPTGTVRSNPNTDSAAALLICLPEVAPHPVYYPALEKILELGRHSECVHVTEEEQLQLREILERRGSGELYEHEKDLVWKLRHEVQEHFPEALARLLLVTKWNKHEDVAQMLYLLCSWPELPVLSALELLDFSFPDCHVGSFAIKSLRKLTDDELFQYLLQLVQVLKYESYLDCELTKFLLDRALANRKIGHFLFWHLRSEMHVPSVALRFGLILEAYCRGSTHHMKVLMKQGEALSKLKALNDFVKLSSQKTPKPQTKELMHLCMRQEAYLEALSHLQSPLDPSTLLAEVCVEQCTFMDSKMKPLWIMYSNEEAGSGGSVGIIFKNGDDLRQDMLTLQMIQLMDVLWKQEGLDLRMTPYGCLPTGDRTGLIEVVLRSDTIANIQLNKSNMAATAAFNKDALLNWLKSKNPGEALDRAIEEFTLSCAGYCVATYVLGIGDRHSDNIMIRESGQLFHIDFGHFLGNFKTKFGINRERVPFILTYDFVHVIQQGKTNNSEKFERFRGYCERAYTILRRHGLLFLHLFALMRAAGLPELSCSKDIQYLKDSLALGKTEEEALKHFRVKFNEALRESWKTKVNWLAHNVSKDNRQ
UniProt P11802, sequence (whole entry, looked up): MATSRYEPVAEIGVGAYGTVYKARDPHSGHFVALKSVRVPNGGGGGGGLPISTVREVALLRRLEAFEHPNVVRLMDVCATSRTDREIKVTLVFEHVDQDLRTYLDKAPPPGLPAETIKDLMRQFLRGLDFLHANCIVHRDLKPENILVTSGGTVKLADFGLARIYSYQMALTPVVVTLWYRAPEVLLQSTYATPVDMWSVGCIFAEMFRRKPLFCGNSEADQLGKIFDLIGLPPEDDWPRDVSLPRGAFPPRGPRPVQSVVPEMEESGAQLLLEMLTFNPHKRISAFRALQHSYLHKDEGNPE
UniProt Q4U2R8, sequence (whole entry, unmodified, looked up): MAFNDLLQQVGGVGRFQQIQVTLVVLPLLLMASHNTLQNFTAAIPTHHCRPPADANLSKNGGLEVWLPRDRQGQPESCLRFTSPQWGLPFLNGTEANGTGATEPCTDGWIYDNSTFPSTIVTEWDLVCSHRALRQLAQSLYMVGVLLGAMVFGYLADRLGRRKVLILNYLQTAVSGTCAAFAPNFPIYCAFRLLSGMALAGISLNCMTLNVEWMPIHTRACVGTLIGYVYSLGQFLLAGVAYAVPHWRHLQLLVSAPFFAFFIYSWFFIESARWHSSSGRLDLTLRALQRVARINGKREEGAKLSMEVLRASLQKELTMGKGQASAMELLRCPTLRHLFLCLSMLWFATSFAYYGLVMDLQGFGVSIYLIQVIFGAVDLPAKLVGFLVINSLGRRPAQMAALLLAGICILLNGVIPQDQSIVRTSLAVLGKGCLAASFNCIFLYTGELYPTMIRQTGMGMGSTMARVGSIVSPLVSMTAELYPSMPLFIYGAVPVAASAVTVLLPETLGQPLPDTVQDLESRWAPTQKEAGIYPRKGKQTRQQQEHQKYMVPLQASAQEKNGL
UniProt Q13546, sequence (whole entry, looked up): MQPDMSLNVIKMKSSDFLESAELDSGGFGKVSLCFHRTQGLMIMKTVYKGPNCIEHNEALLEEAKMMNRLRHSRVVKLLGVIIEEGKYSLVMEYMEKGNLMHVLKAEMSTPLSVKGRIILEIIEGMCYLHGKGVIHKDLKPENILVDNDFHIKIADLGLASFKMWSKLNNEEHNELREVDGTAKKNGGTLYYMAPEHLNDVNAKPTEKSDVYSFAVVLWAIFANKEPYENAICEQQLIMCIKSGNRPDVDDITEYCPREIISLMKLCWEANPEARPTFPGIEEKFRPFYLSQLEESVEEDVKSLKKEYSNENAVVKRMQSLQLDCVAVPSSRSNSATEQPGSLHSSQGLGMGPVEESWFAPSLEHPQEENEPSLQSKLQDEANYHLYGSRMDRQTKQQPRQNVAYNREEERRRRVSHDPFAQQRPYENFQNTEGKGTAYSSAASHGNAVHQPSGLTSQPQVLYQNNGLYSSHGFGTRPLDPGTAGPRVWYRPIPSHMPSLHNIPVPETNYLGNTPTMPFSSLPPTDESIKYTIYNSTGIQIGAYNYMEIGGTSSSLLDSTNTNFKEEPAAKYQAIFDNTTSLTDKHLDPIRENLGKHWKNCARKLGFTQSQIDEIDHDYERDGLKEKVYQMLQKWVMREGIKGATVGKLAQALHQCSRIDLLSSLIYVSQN
UniProt P48730, sequence (whole entry, looked up): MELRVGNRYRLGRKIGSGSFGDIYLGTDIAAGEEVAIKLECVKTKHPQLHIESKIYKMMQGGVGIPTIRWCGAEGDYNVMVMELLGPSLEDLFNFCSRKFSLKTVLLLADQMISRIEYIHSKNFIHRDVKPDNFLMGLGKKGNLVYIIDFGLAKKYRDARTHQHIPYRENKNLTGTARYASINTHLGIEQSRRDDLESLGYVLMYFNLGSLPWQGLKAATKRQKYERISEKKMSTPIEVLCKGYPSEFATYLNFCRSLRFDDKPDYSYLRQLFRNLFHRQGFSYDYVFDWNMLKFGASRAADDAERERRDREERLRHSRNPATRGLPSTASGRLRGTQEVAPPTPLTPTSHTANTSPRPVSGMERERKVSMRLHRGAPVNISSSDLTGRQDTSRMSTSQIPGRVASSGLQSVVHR
UniProt P42681, sequence (whole entry, looked up): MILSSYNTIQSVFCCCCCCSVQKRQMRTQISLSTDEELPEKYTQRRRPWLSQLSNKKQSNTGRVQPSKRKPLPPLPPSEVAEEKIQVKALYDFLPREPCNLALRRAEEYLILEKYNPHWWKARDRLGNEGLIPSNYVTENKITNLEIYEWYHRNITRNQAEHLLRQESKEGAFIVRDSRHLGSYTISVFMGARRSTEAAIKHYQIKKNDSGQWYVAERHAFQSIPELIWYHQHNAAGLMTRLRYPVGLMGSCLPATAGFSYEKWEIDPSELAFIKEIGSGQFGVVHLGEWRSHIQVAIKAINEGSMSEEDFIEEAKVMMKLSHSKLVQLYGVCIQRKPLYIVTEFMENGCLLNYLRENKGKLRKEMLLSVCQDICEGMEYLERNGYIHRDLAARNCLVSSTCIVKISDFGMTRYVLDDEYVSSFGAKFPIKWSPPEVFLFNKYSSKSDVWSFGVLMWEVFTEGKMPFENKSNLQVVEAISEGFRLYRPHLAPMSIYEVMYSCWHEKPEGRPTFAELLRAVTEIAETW

| Compound | target | assay | setting | measurement | value |
| --- | --- | --- | --- | --- | --- |
| CN(C)C(=O)c1cc2cnc(Nc3ccc(-c4cccc5c(=O)cc(N6CCOCC6)oc45)cc3)nc2n1C1CCCC1 | Aurora kinase B (AURKB, Homo sapiens, UniProt Q96GD4) | enzyme activity, inhibitor | – | IC50 | 32.9 nM and < 33 nM |
| N#Cc1cnc(NC(=O)Nc2ccc(C(=O)O)cc2OC(F)(F)F)cn1 | CHEK1 (Homo sapiens, UniProt O14757) | enzyme activity, inhibitor | – | IC50 | 168 nM |
| Cc1cc(C(=O)Nc2ccc(NC(=O)Nc3ccccc3)cc2)cc(S(N)(=O)=O)c1C | CA9 | enzyme activity, inhibitor | – | IC50 | 248 nM |
| Cc1n[nH]c2ccc3nc(-c4ccc(C(=O)NCCN(C)C)cc4F)c4c(c3c12)CCCC4 | FLT3 | enzyme activity, inhibitor | – | IC50 | 28 nM |
| O=C1C(=Nc2ccccc2I)c2ccccc2N1Cc1ccc([N+](=O)[O-])cc1 | PIK3CD (Homo sapiens, UniProt O00329) | enzyme activity, inhibitor, ADP detection | – | IC50 | 7.71 nM |
| C=CC(=O)N1CCC(COCC(=O)N2CCN(c3nc(-c4cnc(N)nc4C(F)F)nc(N4CCOC[C@@H]4C)n3)CC2)CC1 | TXK (Homo sapiens, UniProt P42681) | binding, competition with immobilised ligand | 1 µM | remaining binding | 100% |
| CC(C)c1cccc(C(C)C)c1N=C1C(=O)N(Cc2ccccc2)c2ccccc21 | PIK3CA (Homo sapiens, UniProt P42336) | enzyme activity, inhibitor, ADP detection | – | IC50 | 36.8 nM |
| CNC(=O)c1ccc(C(=O)N2CCN(CC(=O)c3cc(C)n(-c4ccc(S(N)(=O)=O)cc4)c3C)CC2)cc1F | CA9 | enzyme activity, inhibitor | – | IC50 | 67.6 nM |
| CNc1ncc2c(/C=C/C(=O)N3CCC(OC)CC3)nn(Cc3cccc(C(F)(F)F)c3)c2n1 | NEK2 (Homo sapiens, UniProt P51955) | enzyme activity, inhibitor, radiometric | 1 µM | remaining activity | 98% |
| Cc1cc([C@@H](C)Nc2ccccc2C(=O)O)c2nc(N3CCC(F)(F)CC3)c(C#N)c(=O)n2c1 | FLT3 | binding, competition with immobilised ligand | 10 µM | remaining binding | 96% |
| NS(=O)(=O)c1ccc(NC(=O)CSC2=NC(=Cc3ccco3)C(=O)N2c2ccccc2)cc1 | CA9 | enzyme activity, inhibitor | – | IC50 | 176 nM |
| CCCCC(=O)Nc1ccc(-c2ccc3ncn(CCC)c(=O)c3c2)cn1 | RIPK1 (Homo sapiens, UniProt Q13546) | binding, competition with immobilised ligand | 0.5 µM | remaining binding | 100% |
| COc1ccc(Cl)cc1C(=O)NCCc1ccc(S(=O)(=O)NC(=O)NC2CCCCC2)cc1 | SLC22A6 (Homo sapiens, UniProt Q4U2R8, M31A) | transporter uptake, inhibitor, fluorescence | – | IC50 | 11400 nM |
| COc1cc(-c2cncc3c2CN(C)Cc2cc(N4CCNCC4)ccc2-3)cc(OC)c1OC | CSNK1D (Homo sapiens, UniProt P48730) | enzyme activity, inhibitor | 1 µM | remaining activity | 107% |
| CN(C)C(=O)c1cc2cnc(Nc3ccc(-c4ccc5c(=O)cc(N6CCOCC6)oc5c4)cc3)nc2n1C1CCCC1 | Cyclin-dependent kinase 4, with cyclin D1 (CDK4, Homo sapiens, UniProt P11802) | enzyme activity, inhibitor, radiometric | – | IC50 | 4.7 nM |

Repeated from above:
| Compound | target | assay | setting | measurement | value |
| --- | --- | --- | --- | --- | --- |
| NS(=O)(=O)c1ccc(NC(=O)CSC2=NC(=Cc3ccco3)C(=O)N2c2ccccc2)cc1 | CA9 | enzyme activity, inhibitor | – | IC50 | 176 nM |
